{"data": "Experimental data from different studies", "target": "Cholinesterase (BCHE, Equus caballus, UniProt P81908)", "note": "± gives the spread as reported.", "chain of UniProt P81908 (whole entry, looked up)": "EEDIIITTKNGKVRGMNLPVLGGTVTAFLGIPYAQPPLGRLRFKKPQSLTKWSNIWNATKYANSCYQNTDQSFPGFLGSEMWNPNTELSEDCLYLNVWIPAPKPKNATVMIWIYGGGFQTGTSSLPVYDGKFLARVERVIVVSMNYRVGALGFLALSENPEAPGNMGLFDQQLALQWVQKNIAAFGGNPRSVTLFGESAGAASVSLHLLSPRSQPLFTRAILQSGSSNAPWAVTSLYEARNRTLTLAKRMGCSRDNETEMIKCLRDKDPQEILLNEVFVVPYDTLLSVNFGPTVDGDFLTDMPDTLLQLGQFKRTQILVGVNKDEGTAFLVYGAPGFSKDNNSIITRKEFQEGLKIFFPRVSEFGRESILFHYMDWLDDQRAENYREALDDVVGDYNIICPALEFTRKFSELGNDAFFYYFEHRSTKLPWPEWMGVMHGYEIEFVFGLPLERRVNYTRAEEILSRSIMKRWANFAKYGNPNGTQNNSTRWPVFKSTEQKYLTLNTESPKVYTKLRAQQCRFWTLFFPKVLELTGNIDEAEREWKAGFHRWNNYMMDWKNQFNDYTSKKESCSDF"}
{"Compound": "C=CCCCCCCCCCOCc1cn(CC2=CC[C@@H]3C(C(=O)OC)=CO[C@@H](OC(C)=O)[C@H]23)nn1", "mode": "inhibitor", "sample": "horse serum BuChE", "tested at": "10000 µM", "inhibition": "25.56 ± 0.05%"}
{"Compound": "CCCCc1nc2ccc(/N=N/c3ccc(Cl)cc3)cc2c(-c2ccccc2)c1I", "read-out": "enzyme activity", "mode": "inhibitor", "tested at": "100 µM", "inhibition": "52.3%"}
{"Compound": "O=S(=O)(F)CCc1cn(-c2ccc(Cl)c(Cl)c2)nn1", "technique": "Ellman", "host": "horse", "tested at": "20 µM", "inhibition": "88.8%"}
{"Compound": "c1ccc(Nc2c3c(nc4ccccc24)CCCC3)cc1", "read-out": "enzyme activity", "mode": "inhibitor", "tested at": "100 µM", "inhibition": "-31.1%"}
{"Compound": "CCCCCc1nc2ccc(/N=N/c3ccc([N+](=O)[O-])cc3)cc2c(-c2ccccc2)c1I", "read-out": "enzyme activity", "mode": "inhibitor", "tested at": "100 µM", "inhibition": "40.5%"}
{"Compound": "O=C(O)c1cccc(Nc2cc(N3CCN(c4cccc(C(F)(F)F)c4)CC3)c3noc4c3c2C(=O)c2ccccc2-4)c1", "tested at": "10 µM", "inhibition": "< 0%"}
{"Compound": "COC(=O)C1=CO[C@@H](O)[C@@H]2C(Cn3cc(-c4ccc(F)cc4)nn3)=CC[C@H]12", "mode": "inhibitor", "sample": "horse serum BuChE", "tested at": "10000 µM", "inhibition": "84.64 ± 0.12%"}
{"Compound": "Ic1ccccc1/N=N/c1ccc2nc(-c3ccccc3)c(I)c(-c3ccccc3)c2c1", "read-out": "enzyme activity", "mode": "inhibitor", "tested at": "100 µM", "inhibition": "no inhibition"}
{"Compound": "O=S(=O)(F)CCc1cn(Cc2cccc(-c3ccccc3)c2)nn1", "mode": "inhibitor", "technique": "Ellman", "tested at": "20 µM", "inhibition": "30.6%"}
{"Compound": "FC(F)(F)c1cccc(Nc2c3c(nc4ccccc24)CCCC3)c1", "read-out": "enzyme activity", "mode": "inhibitor", "tested at": "100 µM", "inhibition": "-60.9%"}
{"Compound": "CCCCCn1c(SC(C(=O)NCc2ccccc2)C(=O)NCc2ccccc2)nc2cc(C(=O)Nc3cccc(C(F)(F)F)c3)ccc2c1=O", "tested at": "10 µM", "inhibition": "34.3 ± 1.8%"}
{"Compound": "COC(=O)C1=CO[C@@H](OC(C)=O)[C@@H]2C(Cn3cc(CCCO)nn3)=CC[C@H]12", "mode": "inhibitor", "sample": "horse serum BuChE", "tested at": "10000 µM", "inhibition": "27.54 ± 0.2%"}
{"Compound": "COc1ccc(Nc2c3c(nc4cc(C)ccc24)CCCC3)nc1", "read-out": "enzyme activity", "mode": "inhibitor", "tested at": "100 µM", "inhibition": "-39.7%"}
{"Compound": "C[C@@H]1O[C@@H](OC[C@H]2O[C@@H](Oc3c(-c4ccc(O)cc4)oc4cc(O)cc(O)c4c3=O)[C@H](O)[C@@H](O)[C@@H]2O)[C@H](O)[C@H](O)[C@H]1O", "read-out": "enzyme activity", "mode": "inhibitor", "technique": "Ellman", "tested at": "100 µg/mL", "inhibition": "0%"}
{"Compound": "CCCCCCCCOCc1cn(CC2=CC[C@@H]3C(C(=O)OC)=CO[C@@H](OC(C)=O)[C@H]23)nn1", "mode": "inhibitor", "sample": "horse serum BuChE", "tested at": "10000 µM", "inhibition": "37.4 ± 0.61%"}
{"Compound": "CCOP(=O)(Cc1ccc(NC(=O)CSc2nc3ccccc3o2)cc1)OCC", "mode": "inhibitor", "technique": "Ellman method", "tested at": "10 µM", "inhibition": "14.6 ± 2.4%"}
{"Compound": "CCCCc1nc2ccc(/N=N/c3ccc(Br)cc3)cc2c(-c2ccccc2)c1I", "read-out": "enzyme activity", "mode": "inhibitor", "tested at": "100 µM", "inhibition": "32.2%"}
{"Compound": "COc1ccc(Nc2c3c(nc4ccccc24)CCCC3)cc1", "read-out": "enzyme activity", "mode": "inhibitor", "tested at": "100 µM", "inhibition": "-106%"}
{"Compound": "COC(=O)C1=CO[C@@H](O)[C@@H]2C(Cn3cc(C4(O)CCCCC4)nn3)=CC[C@H]12", "mode": "inhibitor", "sample": "horse serum BuChE", "tested at": "10000 µM", "inhibition": "32 ± 0.74%"}
{"Compound": "Clc1ccc(/N=N/c2ccc3nc(-c4ccccc4)c(I)c(-c4ccccc4)c3c2)cc1", "read-out": "enzyme activity", "mode": "inhibitor", "tested at": "100 µM", "inhibition": "48.7%"}
{"Compound": "COc1ccnc(Nc2c3c(nc4ccc(Cl)cc24)CCCC3)c1", "read-out": "enzyme activity", "mode": "inhibitor", "tested at": "100 µM", "inhibition": "-131%"}
{"Compound": "O=S(=O)(F)CCc1cn(-c2cccc(Cl)c2)nn1", "technique": "Ellman", "host": "horse", "tested at": "20 µM", "inhibition": "71.5%"}
{"Compound": "O=C(O)c1ccc(Nc2cc(N3CCN(c4cccc(C(F)(F)F)c4)CC3)c3noc4c3c2C(=O)c2ccccc2-4)cc1", "tested at": "10 µM", "inhibition": "< 0%"}
{"Compound": "Cc1ccnc(Nc2c3c(nc4cc(C)ccc24)CCCC3)c1", "read-out": "enzyme activity", "mode": "inhibitor", "tested at": "50 µM", "inhibition": "< -200%"}
{"Compound": "Cc1ccc(-c2nc3ccc(/N=N/c4ccc(Cl)cc4)cc3c(-c3ccccc3)c2I)cc1", "read-out": "enzyme activity", "mode": "inhibitor", "tested at": "100 µM", "inhibition": "18.8%"}
{"Compound": "COC(=O)C1=CO[C@@H](OC(C)=O)[C@@H]2C(Cn3cc(CCO)nn3)=CC[C@H]12", "mode": "inhibitor", "sample": "horse serum BuChE", "tested at": "10000 µM", "inhibition": "35.5 ± 0.59%"}
{"Compound": "c1ccc2c(Nc3c4c(nc5ccccc35)CCCC4)cccc2c1", "read-out": "enzyme activity", "mode": "inhibitor", "tested at": "100 µM", "inhibition": "79.8%"}
{"Compound": "CCOC(=O)/C=C/c1c(-c2ccc(C)cc2)nc2ccc(/N=N/c3ccc([N+](=O)[O-])cc3)cc2c1-c1ccccc1", "read-out": "enzyme activity", "mode": "inhibitor", "tested at": "100 µM", "inhibition": "39.7%"}
{"Compound": "COC(=O)C1=CO[C@@H](OC(C)=O)[C@@H]2C(Cn3cc(COC(c4ccccc4)(c4ccccc4)c4ccccc4)nn3)=CC[C@H]12", "mode": "inhibitor", "sample": "horse serum BuChE", "tested at": "10000 µM", "inhibition": "1.21 ± 0.18%"}
{"Compound": "Cc1ccnc(Nc2c3c(nc4ccc(Cl)cc24)CCCC3)c1", "read-out": "enzyme activity", "mode": "inhibitor", "tested at": "100 µM", "inhibition": "97.1%"}
{"Compound": "COC(=O)C1=CO[C@@H](O)[C@@H]2C(Cn3cc(CN4C(=O)c5ccccc5C4=O)nn3)=CC[C@H]12", "mode": "inhibitor", "sample": "horse serum BuChE", "tested at": "10000 µM", "inhibition": "81.22 ± 0.38%"}
{"Compound": "O=C(/C=C/c1ccc(O)cc1)O[C@@H]1[C@@H](O)[C@H](Oc2c(-c3ccc(O)cc3)oc3cc(O)cc(O)c3c2=O)O[C@H](CO)[C@H]1O", "read-out": "enzyme activity", "mode": "inhibitor", "technique": "Ellman", "tested at": "100 µg/mL", "inhibition": "6.9%"}
{"note": "A few entries again:"}
{"Compound": "COC(=O)C1=CO[C@@H](OC(C)=O)[C@@H]2C(Cn3cc(CCCO)nn3)=CC[C@H]12", "mode": "inhibitor", "sample": "horse serum BuChE", "tested at": "10000 µM", "inhibition": "27.54 ± 0.2%"}
{"Compound": "COC(=O)C1=CO[C@@H](O)[C@@H]2C(Cn3cc(-c4ccc(F)cc4)nn3)=CC[C@H]12", "mode": "inhibitor", "sample": "horse serum BuChE", "tested at": "10000 µM", "inhibition": "84.64 ± 0.12%"}
{"Compound": "COC(=O)C1=CO[C@@H](OC(C)=O)[C@@H]2C(Cn3cc(COC(c4ccccc4)(c4ccccc4)c4ccccc4)nn3)=CC[C@H]12", "mode": "inhibitor", "sample": "horse serum BuChE", "tested at": "10000 µM", "inhibition": "1.21 ± 0.18%"}
{"Compound": "c1ccc(Nc2c3c(nc4ccccc24)CCCC3)cc1", "read-out": "enzyme activity", "mode": "inhibitor", "tested at": "100 µM", "inhibition": "-31.1%"}
